Experimental data of several laboratories.
Each line is one published result; not all experiments were run side by side. Values joined by “and” are separate records of one study, mostly repeats; a detail may differ. ± marks the error that the study gave. Where no end group is shown, it is not given here. [ ]: non-standard residue; d: D form.
HLA class I histocompatibility antigen, A alpha chain allele A*02:01: HLA class I histocompatibility antigen, A alpha chain, allele A*02:01 (Homo sapiens, UniProt P04439)
SCRIB PDZ3 domain: Protein scribble homolog, PDZ3 domain (SCRIB, Homo sapiens, UniProt Q14160)
HLA class I histocompatibility antigen, A alpha chain allele A*24:02: HLA class I histocompatibility antigen, A alpha chain, allele A*24:02 (Homo sapiens, UniProt P04439)
HLA class I histocompatibility antigen, A alpha chain allele A*01:01: HLA class I histocompatibility antigen, A alpha chain, allele A*01:01 (Homo sapiens, UniProt P04439)

| Molecule | target or system | assay | test system | setting | scale | measurement | result |
| --- | --- | --- | --- | --- | --- | --- | --- |
| LTLGEFLKL | HLA class I histocompatibility antigen, A alpha chain allele A*02:01 | HLA-A2 stabilization, peptide titration | peptide, T2 | 20 h, 37 °C, together with: human β2-microglobulin 100 ng/mL | relative to: HIVpol reference peptide, lower is stronger | relative affinity | 32.1 |
| VKPQVSESKL | SCRIB PDZ3 domain | binding, fluorescence polarization | peptide, solution | Scribble PDZ3 domain | – | Kd | 100 µM |
| Tannic acid | Protein disulfide-isomerase A3 (PDIA3, Homo sapiens, UniProt P30101) | disulfide reductase activity | – | 20 µM, 15 min, together with: di-eosin-GSSG | – | inhibition | inhibited |
| 6-carboxyfluorescein | Solute carrier organic anion transporter family member 2A1 (SLCO2A1, Homo sapiens, UniProt Q92959, E465K) | compound uptake, substrate | HEK293F expressing SLCO2A1 E465K | 50 µM | relative to: wild type | uptake | 8.73% and 8.25% and 9.69% |
| Peginesatide | UT7/EPO | tyrosine phosphorylation, LC-MS/MS phosphoproteomics, trypsin, refers to: JAK2 tyrosine 813 | – | 10 nM, 15 min, together with: 10 U/mL EPO | relative to: vehicle | phosphorylation level | 6.2 fold |
| VLRENTSPK | HLA class I histocompatibility antigen, A alpha chain (Homo sapiens, UniProt P04439) | peptide-MHC binding, iTopia initial binding | peptide, plate-bound HLA heavy chain | 11 µM, 18 h, 21 °C, HLA-A3 allele | relative to: allele-matched positive control peptide | binding | 34% |
| TQSKNGPVPV | SCRIB PDZ3 domain | binding, fluorescence polarization | peptide, solution | Scribble PDZ3 domain | – | Kd | 100 µM |
| FLAFVPLQL | HLA class I histocompatibility antigen, A alpha chain allele A*02:01 | HLA-A2 stabilization, peptide titration | peptide, T2 | 20 h, 37 °C, together with: human β2-microglobulin 100 ng/mL | relative to: HIVpol reference peptide, lower is stronger | relative affinity | 1.47 |
| PMESGICTIV | human MAGI1-3/6 PDZ construct (MBP fusion) | surface plasmon resonance | peptide | concentration not given | higher = stronger binding | normalised SPR binding response | 12.4 normalised RU |
| IMQLMPFGCLL | HLA class I histocompatibility antigen, A alpha chain allele A*24:02 | conformational ELISA | peptide | concentration not given | relative to: positive control peptide, direction not given | binding score | 27.1% |
| methyl-β-cyclodextrin | Sodium- and chloride-dependent glycine transporter 1 (SLC6A9, Homo sapiens, UniProt P48067) | transport activity, [3H]glycine uptake | – | 2.5 mg/mL, 1 min, together with: glycine 75 µM | higher = more transport | glycine uptake rate | 37.4 a.u. and 25.1 a.u. and 24 a.u. and 37.3 a.u. and 38.2 a.u. |
| KRIAYLRKKIAALKKDNANLEKDIANLENEIERLIKEIKTLENEVASHEQ | Cyclic AMP-dependent transcription factor ATF-4 (Homo sapiens, UniProt P18848) | heterodimer thermal denaturation, CD | peptide, 1 M GuHCl | 4 µM total peptide, pH 7.4 | – | Tm | 52.1 °C |
| QDFEKFLKTL | SCRIB PDZ3 domain | binding, fluorescence polarization | peptide, solution | Scribble PDZ3 domain | – | Kd | 100 µM |
| EKPIDSETKM | human SCRIB PDZ3-4 tandem (MBP fusion) | surface plasmon resonance | peptide | concentration not given | higher = stronger binding | normalised SPR binding response | 0 normalised RU |
| LMPFGSLLDYV | HLA class I histocompatibility antigen, A alpha chain allele A*01:01 | conformational ELISA | peptide | concentration not given | relative to: positive control peptide, direction not given | binding score | 0.7% |
| [Aib][Aib]IA (Aib = CC(C)(N)C(=O)O) | Amyloid-beta precursor protein (APP, Homo sapiens, UniProt P05067) | aggregation, ThT fluorescence | – | 24 h, 37 °C, Aβ to peptide ratio 1:5, together with: Aβ1–42 2 µM | relative to: Aβ1–42 alone, lower is stronger inhibition | ThT fluorescence | 79% |
| SEKVSATREEL | SCRIB PDZ3 domain | binding, fluorescence polarization | peptide, solution | Scribble PDZ3 domain | – | Kd | 100 µM |
| FGA (Homo sapiens, UniProt P02671) | CAPN6 (Homo sapiens, UniProt Q9Y6Q1) | cross-linking MS | – | together with: DSSO | – | cross-linked residues | K440 to K609 |
| Et-DADMe-ImmA | Aminodeoxyfutalosine nucleosidase (Helicobacter pylori, UniProt Q9ZMY2) | radiolabel chase ultrafiltration | – | pH 7.4 | – | dissociation rate k4 | 0.12 ± 0.003 min⁻¹ |

| Molecule | target or system | assay | test system | setting | scale | measurement | result |
| --- | --- | --- | --- | --- | --- | --- | --- |
| LIMQLMPFGCL | HLA class I histocompatibility antigen, A alpha chain allele A*24:02 | conformational ELISA | peptide | concentration not given | relative to: positive control peptide, direction not given | binding score | 12.7% |
| alkynyl-farnesyl pyrophosphate | Protein farnesyltransferase (Rattus norvegicus, UniProt Q02293+Q04631) | peptide farnesylation, substrate, fluorescence anisotropy | – | together with: FAM-RHEB peptide | – | Km | 0.022 µM |
| TSTVQLIMQL | HLA class I histocompatibility antigen, A alpha chain allele A*02:01 | conformational ELISA | peptide | concentration not given | relative to: positive control peptide, direction not given | binding score | 3.7% |
| colistin | Salmonella enterica serovar Choleraesuis | broth microdilution | clinical isolate RKI-No 532/14-1 | – | – | MIC | 8 µg/mL |
| CTIL | Candida albicans protein farnesyltransferase | peptide farnesylation, substrate | peptide | together with: C15-Alk 4 µM | – | kcat/KM | 210000 M⁻¹ s⁻¹ |
| phosphatidylinositol bisphosphate | Sulfonylurea receptor 1, Kir6.2 (Homo sapiens, UniProt Q09428+Q14654) | inside-out patch clamp | HEK293 | concentration not given, 30 min | – | decrease in channel activity | < 10% |
| ITQLMPFGSLL | HLA class I histocompatibility antigen, A alpha chain allele A*01:01 | conformational ELISA | peptide | concentration not given | relative to: positive control peptide, direction not given | binding score | 1.3% |
| BzATP | P2X purinoceptor 7 (P2rx7, Rattus norvegicus, UniProt Q64663) | ion current, agonist, two-electrode voltage clamp | Xenopus laevis oocytes | 30 µM | relative to: 100 µM ATP current | normalized current | 1.45 and 1.73 and 1.28 |
| 11-deoxycorticosterone | CYP11B2 (human) | substrate binding, stopped-flow global kinetic fitting | purified enzyme | 3-state induced fit model, together with: 40-fold excess adrenodoxin | – | rate constant k2 | 0.0128 ± 0.474 s⁻¹ |
| Asiaticoside | Cyclin-dependent kinase 7 (CDK7, Homo sapiens, UniProt P50613) | enzyme activity, inhibitor, ADP-Glo kinase | – | 10 µM | – | inhibition | 34.8 ± 7.5% |
| milbemycin oxime | CDR1 (Candida albicans, UniProt Q5ANA3) | binding, microscale thermophoresis | – | 625 nM | – | fraction bound | 80.9% |
| QLIMQLMPFG | HLA class I histocompatibility antigen, A alpha chain allele A*02:01 | conformational ELISA | peptide | concentration not given | relative to: positive control peptide, direction not given | binding score | 8.5% |
| phytol | DNA cross-link repair 1A protein (DCLRE1A, Homo sapiens, UniProt Q6PJP8) | exonuclease activity, inhibitor, fluorescence HTS | – | 10 µM, 80 min, together with: 8 nM 5P-FQ substrate | relative to: high and low controls | remaining activity | 42.8% |
| DGGLRNVDCL | SCRIB PDZ3 domain | binding, fluorescence polarization | peptide, solution | Scribble PDZ3 domain | – | Kd | 100 µM |
| TVQLIMQLMPF | HLA class I histocompatibility antigen, A alpha chain allele A*24:02 | conformational ELISA | peptide | concentration not given | relative to: positive control peptide, direction not given | binding score | 22.2% |
| alpinetin | Pancreatic alpha-amylase (AMY2, Sus scrofa, UniProt P00690) | enzyme activity | – | concentration not given, together with: CNP-G3 | – | inhibition | 34.1 ± 0.98% |
| DFGRAKLL | HLA class I histocompatibility antigen, A alpha chain allele A*24:02 | conformational ELISA | peptide | concentration not given | relative to: positive control peptide, direction not given | binding score | 1.8% |
| LMDLSTTEV | HLA class I histocompatibility antigen, A alpha chain allele A*02:01 | HLA-A2 stabilization, peptide titration | peptide, T2 | 20 h, 37 °C, together with: human β2-microglobulin 100 ng/mL | relative to: HIVpol reference peptide, lower is stronger | relative affinity | 0.43 |
